Experimental data collected from several papers.
Each line is one published result; not all experiments were run side by side. Numbers after ± are the reported error.
ERBB4: Receptor tyrosine-protein kinase erbB-4 (ERBB4, Homo sapiens, UniProt Q15303)
Chain of UniProt Q15303 (whole entry, looked up): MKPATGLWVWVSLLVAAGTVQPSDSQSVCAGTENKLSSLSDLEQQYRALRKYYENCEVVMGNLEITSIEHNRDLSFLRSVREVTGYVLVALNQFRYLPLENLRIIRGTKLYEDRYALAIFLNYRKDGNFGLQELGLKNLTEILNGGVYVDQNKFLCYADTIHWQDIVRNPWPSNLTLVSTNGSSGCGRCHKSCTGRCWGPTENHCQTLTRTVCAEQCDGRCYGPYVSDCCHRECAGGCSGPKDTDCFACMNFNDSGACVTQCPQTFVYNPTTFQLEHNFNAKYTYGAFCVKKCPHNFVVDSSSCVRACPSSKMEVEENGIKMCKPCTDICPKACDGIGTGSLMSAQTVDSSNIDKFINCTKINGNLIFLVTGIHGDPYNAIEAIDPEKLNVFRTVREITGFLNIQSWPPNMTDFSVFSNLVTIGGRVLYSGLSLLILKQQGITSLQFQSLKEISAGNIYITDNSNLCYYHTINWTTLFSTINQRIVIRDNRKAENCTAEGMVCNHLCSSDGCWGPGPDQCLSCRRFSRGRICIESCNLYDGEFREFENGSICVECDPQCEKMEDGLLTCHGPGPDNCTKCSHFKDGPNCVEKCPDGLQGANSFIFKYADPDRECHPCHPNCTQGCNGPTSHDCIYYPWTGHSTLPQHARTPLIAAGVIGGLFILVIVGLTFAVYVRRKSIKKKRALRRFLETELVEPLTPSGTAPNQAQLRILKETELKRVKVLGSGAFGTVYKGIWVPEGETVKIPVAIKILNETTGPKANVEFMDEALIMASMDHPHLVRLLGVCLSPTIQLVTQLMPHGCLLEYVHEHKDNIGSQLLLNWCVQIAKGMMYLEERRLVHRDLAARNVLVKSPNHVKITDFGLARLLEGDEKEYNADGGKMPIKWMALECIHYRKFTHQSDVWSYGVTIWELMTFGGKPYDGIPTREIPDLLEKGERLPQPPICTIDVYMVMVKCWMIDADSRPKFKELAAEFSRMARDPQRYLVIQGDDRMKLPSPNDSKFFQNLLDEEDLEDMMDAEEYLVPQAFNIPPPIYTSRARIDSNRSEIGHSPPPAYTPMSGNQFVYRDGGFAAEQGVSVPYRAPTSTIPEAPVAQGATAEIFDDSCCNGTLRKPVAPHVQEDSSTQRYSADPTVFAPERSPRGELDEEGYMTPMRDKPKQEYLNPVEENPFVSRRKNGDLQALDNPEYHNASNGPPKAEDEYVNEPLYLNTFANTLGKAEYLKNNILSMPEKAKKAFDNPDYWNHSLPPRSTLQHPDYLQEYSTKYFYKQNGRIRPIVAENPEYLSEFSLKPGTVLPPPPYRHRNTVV
Abhd6: Monoacylglycerol lipase ABHD6 (Abhd6, Rattus norvegicus, UniProt Q5XI64)
Chain of UniProt P00942 (whole entry, unmodified, looked up): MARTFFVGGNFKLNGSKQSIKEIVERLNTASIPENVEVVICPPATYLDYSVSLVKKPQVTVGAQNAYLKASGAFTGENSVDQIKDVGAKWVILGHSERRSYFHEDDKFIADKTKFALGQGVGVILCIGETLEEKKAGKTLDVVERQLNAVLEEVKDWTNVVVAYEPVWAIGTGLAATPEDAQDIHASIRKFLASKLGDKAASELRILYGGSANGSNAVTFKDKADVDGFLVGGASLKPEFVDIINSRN
Chain of UniProt Q5XI64 (whole entry, looked up): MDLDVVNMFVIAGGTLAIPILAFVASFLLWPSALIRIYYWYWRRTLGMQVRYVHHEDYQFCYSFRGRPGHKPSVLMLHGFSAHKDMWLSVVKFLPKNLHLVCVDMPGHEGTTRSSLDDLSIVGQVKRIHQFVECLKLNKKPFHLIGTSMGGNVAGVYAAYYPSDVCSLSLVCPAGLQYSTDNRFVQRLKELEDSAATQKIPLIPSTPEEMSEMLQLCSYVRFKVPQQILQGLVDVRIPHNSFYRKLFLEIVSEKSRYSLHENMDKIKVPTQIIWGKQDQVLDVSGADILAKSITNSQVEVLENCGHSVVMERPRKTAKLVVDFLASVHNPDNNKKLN
Chain of UniProt P49683 (whole entry, looked up): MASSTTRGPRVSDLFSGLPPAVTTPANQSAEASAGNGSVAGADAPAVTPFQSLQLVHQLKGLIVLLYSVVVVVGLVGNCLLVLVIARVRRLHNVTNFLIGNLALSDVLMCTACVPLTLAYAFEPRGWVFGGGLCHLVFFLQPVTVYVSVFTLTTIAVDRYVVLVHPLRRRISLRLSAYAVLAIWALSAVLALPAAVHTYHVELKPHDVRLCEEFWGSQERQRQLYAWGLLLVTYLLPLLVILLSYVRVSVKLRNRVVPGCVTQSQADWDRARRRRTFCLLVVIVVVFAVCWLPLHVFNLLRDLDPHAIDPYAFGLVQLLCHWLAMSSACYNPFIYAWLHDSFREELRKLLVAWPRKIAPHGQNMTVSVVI
Chain of UniProt Q14164 (whole entry, looked up): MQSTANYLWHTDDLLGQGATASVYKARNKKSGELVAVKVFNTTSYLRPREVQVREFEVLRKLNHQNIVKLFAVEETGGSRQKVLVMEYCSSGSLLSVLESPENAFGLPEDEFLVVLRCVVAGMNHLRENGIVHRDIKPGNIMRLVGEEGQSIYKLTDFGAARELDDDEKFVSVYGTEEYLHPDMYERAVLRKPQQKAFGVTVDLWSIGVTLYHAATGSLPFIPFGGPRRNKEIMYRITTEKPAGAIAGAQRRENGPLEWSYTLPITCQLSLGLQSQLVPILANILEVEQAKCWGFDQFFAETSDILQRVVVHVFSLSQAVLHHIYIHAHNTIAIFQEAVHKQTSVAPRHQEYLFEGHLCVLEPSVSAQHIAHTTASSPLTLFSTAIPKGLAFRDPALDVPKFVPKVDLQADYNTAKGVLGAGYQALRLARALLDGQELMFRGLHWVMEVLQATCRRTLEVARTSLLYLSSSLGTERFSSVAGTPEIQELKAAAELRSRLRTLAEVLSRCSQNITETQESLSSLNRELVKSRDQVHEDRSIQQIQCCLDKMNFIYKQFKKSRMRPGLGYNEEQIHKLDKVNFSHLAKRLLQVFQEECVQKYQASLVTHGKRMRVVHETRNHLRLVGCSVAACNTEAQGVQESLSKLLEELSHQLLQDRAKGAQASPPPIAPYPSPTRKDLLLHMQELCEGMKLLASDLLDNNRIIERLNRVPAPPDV
Chain of UniProt Q02153 (whole entry, looked up): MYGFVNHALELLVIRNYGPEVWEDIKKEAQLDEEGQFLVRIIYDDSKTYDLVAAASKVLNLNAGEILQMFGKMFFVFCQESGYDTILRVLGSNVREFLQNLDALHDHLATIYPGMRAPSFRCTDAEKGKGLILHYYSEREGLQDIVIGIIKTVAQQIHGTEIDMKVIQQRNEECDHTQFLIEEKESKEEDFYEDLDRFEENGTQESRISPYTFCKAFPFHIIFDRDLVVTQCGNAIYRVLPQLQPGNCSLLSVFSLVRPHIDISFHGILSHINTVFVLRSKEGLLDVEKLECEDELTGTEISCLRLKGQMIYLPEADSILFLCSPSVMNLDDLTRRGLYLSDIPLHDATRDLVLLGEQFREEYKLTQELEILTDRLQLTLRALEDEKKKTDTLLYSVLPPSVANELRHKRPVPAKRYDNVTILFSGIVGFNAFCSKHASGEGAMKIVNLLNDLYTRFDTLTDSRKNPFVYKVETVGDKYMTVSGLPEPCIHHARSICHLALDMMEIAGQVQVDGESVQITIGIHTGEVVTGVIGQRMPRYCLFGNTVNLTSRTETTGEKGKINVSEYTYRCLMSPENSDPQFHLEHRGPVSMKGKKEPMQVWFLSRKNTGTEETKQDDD
Chain of UniProt P12763 (whole entry, unmodified, looked up): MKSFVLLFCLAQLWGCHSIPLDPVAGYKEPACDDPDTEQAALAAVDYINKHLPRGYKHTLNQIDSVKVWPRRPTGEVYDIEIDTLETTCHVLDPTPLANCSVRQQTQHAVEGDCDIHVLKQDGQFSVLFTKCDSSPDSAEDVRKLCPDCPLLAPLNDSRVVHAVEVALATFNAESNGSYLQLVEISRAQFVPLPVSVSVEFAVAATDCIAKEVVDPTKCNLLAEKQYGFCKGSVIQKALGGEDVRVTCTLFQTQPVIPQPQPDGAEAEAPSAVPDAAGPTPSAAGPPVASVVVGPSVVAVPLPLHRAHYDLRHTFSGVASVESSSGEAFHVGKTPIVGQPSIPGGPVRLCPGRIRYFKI
Chain of UniProt Q96AM1 (whole entry, looked up): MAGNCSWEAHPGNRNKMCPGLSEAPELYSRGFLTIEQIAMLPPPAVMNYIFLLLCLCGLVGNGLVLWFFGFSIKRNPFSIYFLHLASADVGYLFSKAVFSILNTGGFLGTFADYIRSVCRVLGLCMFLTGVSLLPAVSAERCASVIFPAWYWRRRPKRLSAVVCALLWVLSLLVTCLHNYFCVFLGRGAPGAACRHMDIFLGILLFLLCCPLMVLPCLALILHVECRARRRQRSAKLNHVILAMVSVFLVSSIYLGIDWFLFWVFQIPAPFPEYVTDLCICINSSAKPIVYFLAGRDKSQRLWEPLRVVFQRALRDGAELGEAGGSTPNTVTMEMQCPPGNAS
Chain of UniProt P25021 (whole entry, looked up): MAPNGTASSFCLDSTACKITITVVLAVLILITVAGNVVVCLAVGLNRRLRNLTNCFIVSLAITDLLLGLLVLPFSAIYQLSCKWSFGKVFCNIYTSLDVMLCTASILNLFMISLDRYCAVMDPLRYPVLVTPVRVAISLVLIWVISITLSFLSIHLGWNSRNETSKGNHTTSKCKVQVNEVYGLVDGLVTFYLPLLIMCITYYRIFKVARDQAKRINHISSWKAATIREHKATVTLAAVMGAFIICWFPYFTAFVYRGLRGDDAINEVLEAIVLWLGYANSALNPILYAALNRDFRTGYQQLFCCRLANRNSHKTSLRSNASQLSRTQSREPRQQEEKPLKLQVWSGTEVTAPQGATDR
Chain of UniProt Q8WZ82 (whole entry, looked up): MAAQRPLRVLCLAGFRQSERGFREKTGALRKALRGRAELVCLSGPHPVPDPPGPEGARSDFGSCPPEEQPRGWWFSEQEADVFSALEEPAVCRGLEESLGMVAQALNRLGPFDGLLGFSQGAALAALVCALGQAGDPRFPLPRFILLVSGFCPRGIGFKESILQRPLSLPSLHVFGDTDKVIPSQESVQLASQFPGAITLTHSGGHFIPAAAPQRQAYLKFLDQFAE

`O=C[C@H](O)COP(=O)(O)O` gave a Km of roughly 26 mM (TPI1 (Saccharomyces cerevisiae, UniProt P00942, Y208T); substrate, GPDH/NADH-coupled; pH 5.7, 25 °C).
Under “surface TFRC expression”, `CC[C@@H](C)[C@@H](NC(=O)[C@@H](Cc1ccc(O)cc1)NC(=O)[C@H]1CCCN1C(=O)[C@@H](CCCNC(=N)N)NC(=O)[C@H](N)Cc1c[nH]cn1)C(=O)N[C@H](C)C(=O)N[C@H](Cc1c[nH]cn1)C(=O)N[C@H](CCCNC(=N)N)C(=O)N[C@H](CCCCNC(=O)c1cccc(S(=O)(=O)F)c1)C(=O)N[C@H](Cc1ccc(O)cc1)C(=O)N[C@H](CO)C(=O)N[C@H](Cc1ccccc1)C(N)=O` is recorded as 0.583 (Transferrin receptor protein 1 (Tfrc, Mus musculus, UniProt Q62351); flow cytometry; RAW264.7; 2 h, pH 7.4, unit not given; relative to: 0 h).
`CC(C)(C)C(=O)CSc1ncc2c(n1)-c1ccsc1CC2`: “active site volume” 53.7 ± 0.8 Å³ (Dual specificity protein phosphatase 10, catalytic domain (Homo sapiens, UniProt Q9Y6W6); X-ray co-crystal structure; concentration not given).
With `C[C@H]1CN(c2n[nH]c3nc(N[C@H]4CC[C@H](NS(=O)(=O)CCC(F)(F)F)CC4)ncc23)CCO1` the relative abundance was 0.94 (ERBB4; inhibitor, Kinobeads competition profiling; 0.032 µM; relative to: vehicle).
The Km of `Nc1ncnc2c1ncn2[C@H]1C[C@H](O)[C@@H](COP(=O)(O)OP(=O)(O)OP(=O)(O)O)O1` is reported as 3.45e-05 ± 6.12e-06 mM (Gag-Pol polyprotein, reverse transcriptase (gag-pol, Human immunodeficiency virus type 1 group M subtype B, UniProt P04585); single nucleotide extension, substrate; wild type, T:A matched primer/template).
`COc1cccc(-c2nsc(=O)o2)c1` gave a kobs/[I] of 0.59 M⁻¹ s⁻¹ (PSMB6 (Homo sapiens, UniProt P28072); enzyme inactivation, inhibitor; human PA28-activated proteasome).
`COc1cc2nccc(Oc3ccc(NC(=O)c4cc5c(n(-c6ccccc6)c4=O)CCCC5=O)nc3)c2cc1OC` gave a selectivity ratio of greater than 100 (MST1R (Homo sapiens, UniProt Q04912); cell viability, CellTiter-Glo; Ba/F3 expressing recombinant kinase; relative to: MST1R IC50 over AXL IC50).
`Nc1nc2c(ncn2[C@@H]2O[C@@H]3COP(=O)(O)O[C@H]4[C@@H](O)[C@H](n5cnc6c(N)ncnc65)O[C@@H]4COP(=O)(O)O[C@H]4[C@@H](O)[C@H](n5cnc6c(N)ncnc65)O[C@@H]4COP(=O)(O)O[C@H]3[C@H]2O)c(=O)[nH]1`: binding “binds” (Thoeris anti-defense 1 (tad1, Bacillus phage SBSphiJ7, UniProt P0DW57); native gel and ITC; concentration not given).
`C/C=C1\C(=O)C[C@H]2[C@@H]3CCC4=CC(=O)CC[C@]4(C)[C@H]3CC[C@]12C` — result for activity: “inactive” (NR1H3 (Homo sapiens, UniProt Q13133); concentration not given).
For `CC[C@H](C)[C@@H]1NC(=O)[C@@H]2CCCN2C(=O)[C@H](CC(C)C)NC(=O)[C@H](CC(C)C)NC(=O)CNC(=O)[C@@H](NC(=O)[C@@H](NC(=O)[C@H](CC(=O)O)NC(=O)CNC(=O)[C@@H](NC(=O)[C@H](C)NC(=O)CNC(=O)[C@H](CCCCN)NC(=O)[C@H](CC(C)C)NC(=O)[C@H](CC(C)C)NC(=O)[C@H](CCCCN)NC(=O)CNC(=O)[C@@H](NC(=O)[C@@H](N)CC(C)C)C(C)C)C(C)C)C(C)C)CSSC[C@@H](C(=O)O)NC1=O`, “log2 fold change” read -1.8 (RNA-seq, refers to: Bcl2l11; mouse, traumatic brain injury model, frontal cortex and hippocampus; dose not given; relative to: TBI alone).
`O=C(O)c1ccc(CN2C(=O)CN(C(=O)c3ccco3)c3cc(-c4ccccc4)c(Oc4ccc(C(=O)O)cc4)cc32)cc1` gave a sGC activity of 4.4 fold (GUCY1B1, with alpha-1 subunit (Homo sapiens, UniProt Q02153); purified recombinant enzyme; 10 µM, wild-type α1/β1; relative to: basal).
`O=C(c1ccc(Cl)cc1)N1CCN2C(=O)N(OC(=O)N3CCOc4ccccc43)C(=O)C2C1` (centres unmarked): “median protein ratio” 0.94 (OVCA2 (Homo sapiens, UniProt Q8WZ82); MS-based ABPP; SW-620 conditioned medium; 10 µM, 1 h, 37 °C; relative to: compound over DMSO, lower = more inhibition).
For `Nc1nc2c(ncn2[C@@H]2O[C@@H]3COP(=O)(O)O[C@@H]4[C@H](O)[C@@H](COP(=O)(O)O[C@H]3[C@H]2O)O[C@H]4n2cnc3c(N)ncnc32)c(=O)[nH]1`, “lowest concentration for DNA cleavage” read 1 nM (CBASS effector Cap5 (Pseudomonas syringae, UniProt A0A2P0QGK5); plasmid DNA cleavage, agarose gel; 20 min, with: plasmid DNA 50 nM).
`COc1cc2c(Oc3ccc4[nH]c(C)cc4c3F)ccnc2cc1OCC1(N)CC1`: “grade 3 abdominal pain” 0% (paediatric recurrent refractory sarcoma; 10 mg).
Under “log2 fold change”, `COc1cc(N)c(Cl)cc1C(=O)NC1CN2CCC1CC2` (centres unmarked) is recorded as -0.3 (Mas-related G-protein coupled receptor member F (MRGPRF, Homo sapiens, UniProt Q96AM1); β-arrestin recruitment, TANGO luminescence, refers to: MRGPRF; concentration not given; relative to: basal luminescence).
`CN(C(=O)n1cnc(-c2ccc[n+]([O-])c2)c1)C1CCCCC1` has a fold change of -5.6 (Abhd6; enzyme activity, ABPP; rat, brain; oral, 30 mg/kg/day, 7 days; relative to: vehicle).
With `Nc1ncnc2c1ncn2[C@@H]1O[C@H](COP(=O)(O)OP(=O)(O)OP(=O)(O)O)[C@@H](O)[C@H]1O` the fluorescence ratio was 3.9 (matB (Rhodopseudomonas palustris, UniProt Q6ND88, C106A/K488A/Q457C/R286C); ATP binding; pH 7.0, 100 mM NaCl; relative to: bound over unbound).
`Clc1cc2c(cc1Cl)Oc1cc(Cl)c(Cl)cc1O2` has a fold induction of 13.3 (Uncharacterized protein (Takifugu rubripes, UniProt Q4JHL4); reporter gene, agonist, dual-luciferase; COS-7; 0.1 µM, 28 h; relative to: DMSO).
`Nc1ncc(-c2nc(N3CCOCC3)nc(N3CCOCC3)n2)c(C(F)F)n1` has a remaining binding of 77% (EGFR (Homo sapiens, UniProt P00533, del746-750); KINOMEscan; 10 µM).
For `COc1ccc(Nc2nn3c(-c4ccccc4)ccnc3c2C(=O)Nc2ccc(Cl)cc2)cc1`, “decrease in band quantity” read 48.6% (α-glucosidase; SDS-PAGE, refers to: 1 kDa band; 1 mg/mL).
With `[2H]c1c([2H])c([C@]2([2H])CCCN2C(=O)C(C)(C)Oc2ccc3cn[nH]c3c2)c([2H])c([2H])c1C([2H])([2H])[2H]` the remaining binding was 100% (CDK2 (Homo sapiens, UniProt P24941); KINOMEscan; 1 µM; relative to: DMSO control).
With `CC[C@H](C)[C@@H]1NC(=O)[C@H](Cc2c[nH]c3ccccc23)NC(=O)[C@H](Cc2ccc(O)cc2)NC(=O)CSC[C@@H](C(N)=O)NC(=O)[C@H]([C@@H](C)O)NC(=O)[C@H](CO)NC(=O)[C@H](C(C)C)NC(=O)[C@H](Cc2ccc(O)cc2)NC(=O)[C@H](CCCNC(=N)N)NC(=O)[C@H](Cc2ccc(O)cc2)NC(=O)[C@H]([C@@H](C)O)NC(=O)[C@H]([C@@H](C)O)NC(=O)[C@H](Cc2c[nH]c3ccccc23)NC(=O)[C@H](CO)NC(=O)[C@H](CC(N)=O)NC(=O)[C@H](CO)NC1=O` the ΔH was -7 ± 1.7 kcal/mol (Vacuolar protein sorting-associated protein 26A/Vacuolar protein sorting-associated protein 35, Vps35 residues 1–224 (Homo sapiens, UniProt O75436+Q96QK1); ITC; 25 °C).
`CC[C@H](C)[C@H](NC(=O)[C@H](Cc1ccccc1)NC(=O)[C@H](CCC(=O)O)NC(=O)[C@H](CCCNC(=N)N)NC(=O)[C@H](C)NC(=O)[C@H](C)NC(=O)[C@H](CCC(N)=O)NC(=O)[C@H](CCC(=O)O)NC(=O)[C@H](CCC(=O)O)NC(=O)[C@H](CC(C)C)NC(=O)[C@H](Cc1ccc(O)cc1)NC(=O)[C@H](CO)NC(=O)[C@H](CO)NC(=O)[C@@H](NC(=O)[C@H](CC(=O)O)NC(=O)[C@H](CO)NC(=O)[C@@H](NC(=O)[C@H](Cc1ccccc1)NC(=O)[C@@H](NC(=O)CNC(=O)[C@H](CCC(=O)O)NC(=O)[C@H](C)NC(=O)CCc1c[nH]cn1)[C@@H](C)O)[C@@H](C)O)C(C)C)C(=O)N[C@@H](C)C(=O)N[C@@H](Cc1c[nH]c2ccccc12)C(=O)N[C@@H](CC(C)C)C(=O)N[C@H](C(=O)N[C@@H](CCCNC(=N)N)C(=O)NCC(=O)N[C@@H](CCCNC(=N)N)C(=O)N[C@@H](CCCCNC(=O)COCCOCCNC(=O)COCCOCCNC(=O)CC[C@H](NC(=O)CCCCCCCCCCCCCCCCC(=O)O)C(=O)O)C(=O)NCC(=O)NCC(=O)N[C@@H](CO)C(=O)N[C@@H](CCCCNc1c(NCCCCCN(O)C(=O)CCC(=O)NCCCCCN(O)C(=O)CCC(=O)NCCCCCN(O)C(C)=O)c(=O)c1=O)C(=O)O)C(C)C` [zirconium-89 labelled] gave a tissue uptake of 0.04 %ID/g (rat, muscle; iv, 3 nmol/kg, 72 h, ex vivo).
For `O=C(Nc1cnccc1Cl)N1CCN(Cc2ccc3c(c2)OC(F)(F)O3)CC1`, “inhibition of binding” read 9% (GRM2 (Homo sapiens, UniProt Q14416); radioligand binding; 10 µM, with: [3H]LY341495).
`COc1cc(O)cc(/C=C/c2ccc(O)cc2)c1` — result for “ΔH of binding”: -10.5 ± 0.212 kcal/mol (O-methyltransferase (Sorghum bicolor, UniProt A0A1B6PFV1); concentration not given, with: SAH+).
For `O=C(O)COP(=O)(O)O`, the Ki ratio was 9 (TPI1 (Saccharomyces cerevisiae, UniProt P00942, S211G/Y208T); enzyme activity, competitive inhibitor, GPDH/NADH-coupled; pH 8.3, 25 °C, ionic strength 0.1 NaCl, with: glyceraldehyde 3-phosphate substrate; relative to: mutant over wild type).
`CCCCCCCCCCCC(=O)N[C@H]1CCOC1=O` has a K0.5 of 10.7 nM (qscR (Pseudomonas aeruginosa, UniProt G3XD77); ligand binding, FRET displacement; intact cells; apparent affinity).
For `CC(C)C[C@@H]1NC(=O)[C@H](C(C)C)NC(=O)CNC(=O)[C@H](CC(N)=O)NC(=O)[C@@H]2CCCN2C(=O)[C@H](Cc2ccc(O)cc2)NC(=O)[C@H](CCCNC(=N)N)NC(=O)[C@H](Cc2ccccc2)NC(=O)[C@@H](NC(=O)[C@H](CCCCN)NC(=O)[C@@H]2CCCN2C(=O)[C@H](CO)NC(=O)[C@H](C)NC(=O)[C@@H](N)Cc2ccc(O)cc2)CSSC[C@@H](C(=O)N[C@H](C(N)=O)[C@@H](C)O)NC(=O)[C@H](C)NC1=O`, the -ΔG was 5.23 kcal/mol (Alpha-2-HS-glycoprotein, asialo (AHSG, Bos taurus, UniProt P12763); binding, isothermal titration calorimetry; pH 7.0, 25 °C, with: asialofetuin).
`CN1CCN(c2cc(-c3ccncc3)c(-c3ccc4ccccc4c3)nn2)CC1` has an activation of -1.7% (CX3CR1 (Homo sapiens, UniProt P49238); agonist, FLIPR calcium; 12.5 µM).
`Cc1[nH]c2ccccc2c1-c1csc(-c2c[nH]c3ccccc23)n1` — result for binding: “no binding” (Regulatory protein E2, DNA-binding domain (Human papillomavirus 16, UniProt P03120); thermal shift; concentration not given).
Under “log2 fold change”, `CCN1CCC[C@H]1CNC(=O)c1c(O)c(Cl)cc(Cl)c1OC` is recorded as 0.007 (PRLHR (Homo sapiens, UniProt P49683); receptor activation, TANGO luminescence; concentration not given, unconfirmed screen; relative to: vehicle control).
With `CCCCC/C=C\C/C=C\C/C=C\C/C=C\CCCC(=O)NCCO` the Hill coefficient was 3.55 ± 0.67 (Trpv1 (Mus musculus, UniProt Q704Y3, Y512F); ion current, agonist, whole-cell patch clamp; Y512F).
`COc1cc(Nc2ncc(F)c(Nc3ccc4c(n3)NC(=O)C(C)(C)O4)n2)cc(OC)c1OC` has an inhibition of 99% (IKBKE (Homo sapiens, UniProt Q14164); KINOMEscan; 10 µM, IKK-epsilon).
`CN(C(=O)n1cnc(-c2ccc[n+]([O-])c2)c1)C1CCCCC1` has an inhibition of 27.9% (Abhd6; probe labelling, inhibitor, competitive ABPP; rat brain membrane fraction; 10 µM, with: azido-FP probe).
With `COc1ccc(F)cc1C(=O)NCc1ccc(-c2nn([C@@H](C)C(F)(F)F)c(N)c2C(N)=O)cc1` the selectivity ratio was 4.2 (ERBB4; enzyme activity; relative to: ERBB4 over BTK).
`COc1ccc(N2C(=O)N(c3c(C)cccc3Cl)Cc3cnc(Nc4ccc(C5CCN(C)CC5)cc4OC)nc32)nc1` gave an inhibition of 1% (DCLK1 (Homo sapiens, UniProt O15075); kinase activity, inhibitor; 0.5 µM, DCAMKL1).
For `CCN(CC)CCCC[C@H](NC(=O)[C@H](CC(C)C)NC(=O)[C@H](C)NC(=O)[C@H](Cc1ccccc1)NC(=O)c1ccc(C(C)(C)C)cc1)C(=O)N[C@@H](CO)C(=O)OC`, the specific binding was 98.6% (HRH2 (Homo sapiens, UniProt P25021); antagonist, radioligand binding; 10 µM; relative to: control binding).
`CC1(C)S[C@@H]2[C@H](NC(=O)[C@H](N)c3ccccc3)C(=O)N2[C@H]1C(=O)O` gave a kinact/KI of 59000 ± 6600 M⁻¹ s⁻¹ (Penicillin-binding protein 2X (Streptococcus pneumoniae R6, UniProt P59676); inhibitor; Streptococcus pneumoniae).
